{"data": "Assay results collected from several papers", "note": "Each line is one published result; not all experiments were run side by side. Several values in a cell are separate wells, animals, samples, runs or records. Numbers after ± are the reported error."}
{"Structure (SMILES)": "CN(C)c1ccc(-n2cc(COC(=O)[C@@]3(C)C=C(C(=O)OC(C)(C)C)C(=O)CC3)nn2)cc1", "target": "MAPK8 (Homo sapiens, UniProt P45983)", "test": "D-peptide binding, inhibitor, FP peptide displacement", "conditions": "3.125 µM", "scale": "lower is stronger displacement", "endpoint": "fraction bound", "value": 0.943}
{"Structure (SMILES)": "COC(=O)c1cc2cc3c(cc2oc1=O)N(CC(=O)NC(Cc1cccc(Cl)c1)C(=O)NCC=CS(=O)(=O)c1ccccc1)CCC3 (stereo not shown)", "target": "Rhodesain (rhodesain, Trypanosoma brucei rhodesiense, UniProt Q95PM0)", "test": "inhibitor", "conditions": "pH 5.5, 37 °C, together with: Z-Phe-Arg-AMC", "endpoint": "kinact/Ki", "value": "4290 M⁻¹ s⁻¹"}
{"Structure (SMILES)": "CC[C@H](C)[C@@H]1NC(=O)[C@H](Cc2ccc(O)cc2)NC(=O)[C@H](Cc2ccccc2)NC(=O)[C@H](C(C)C)NC(=O)[C@H](Cc2ccccc2)NC(=O)CSC[C@@H](C(=O)N[C@@H](Cc2c[nH]cn2)C(N)=O)NC(=O)[C@H](CC(N)=O)NC(=O)[C@H](Cc2c[nH]c3ccccc23)NC1=O", "target": "STING1 (Homo sapiens, UniProt Q86WV6, H232R)", "test": "thermal stability, DSF", "conditions": "200 µM", "endpoint": "ΔTm", "value": "9.34 °C"}
{"Structure (SMILES)": "CCn1cc(-c2cccc(C(F)(F)F)c2)c2sc(C(=N)NC3CCS(=O)(=O)CC3)cc2c1=O", "target": "Bromodomain testis-specific protein, BD1 (BRDT, Homo sapiens, UniProt Q58F21)", "endpoint": "ΔTm", "value": "3.3 °C"}
{"Structure (SMILES)": "CCOC(=O)C(CC)(CCCSCCOCCN)NC(=O)c1ccc(C2CC2)c(Cc2ccc(F)cc2)n1 (stereo not shown)", "target": "Cnr2 (Mus musculus, UniProt P47936)", "test": "cAMP, agonist", "endpoint": "Emax", "value": "92%"}
{"Structure (SMILES)": "CCCCCC=CC=C1C(=O)C=CC1CC=CCCCC(=O)O (stereo not shown)", "target": "Ribonucleoside-diphosphate reductase large subunit (Homo sapiens, UniProt P23921)", "test": "competitive isoTOP-ABPP, item: RRM1 cysteine peptide", "system": "Ramos soluble proteome", "conditions": "100 µM, together with: iodoacetamide probe", "scale": "reference: DMSO over compound-treated, higher = stronger cysteine blockade", "endpoint": "isoTOP-ABPP competition ratio", "value": 3}
{"Structure (SMILES)": "O=C(NC[C@@H](Cc1ccc(F)cc1)N1CCC(O)(C(F)(F)F)CC1)C1(c2ccc(Cl)cc2)CCCC1", "target": "TRPA1 (Homo sapiens, UniProt O75762, V875M)", "test": "calcium influx, agonist", "scale": "reference: V875M mutant over wild type", "endpoint": "EC50 fold change", "value": 2.1}
{"Structure (SMILES)": "CCCCCCCC/C=C\\CCCCCCCC(=O)OCC(O)COP(=O)(O)O (stereo not shown)", "target": "LPAR1 (Homo sapiens, UniProt Q92633)", "test": "G-protein dissociation, agonist, NanoBiT", "system": "HEK-293T", "conditions": "10 nM, wild-type receptor", "scale": "reference: baseline luminescence", "endpoint": "fold change", "value": "0.836 and 0.839 and 0.845 and 0.874 and 0.86 and 0.838"}
{"Structure (SMILES)": "O=C1c2sc(-c3ccc(N4CCC(F)C4)nc3F)nc2CCN1c1cccnc1 (stereo not shown)", "target": "Glucagon receptor (GCGR, Homo sapiens, UniProt P47871)", "test": "ligand displacement, radioligand", "conditions": "1 µM", "endpoint": "inhibition", "value": "2%"}
{"Structure (SMILES)": "Cn1c(=O)n(C2CCC(=O)NC2=O)c2ccc(C3CCN(CC(=O)Nc4cccc(CS(=O)(=O)N5CC[C@H](Nc6cccc(-c7sc(C(=O)O)c(OCC(=O)O)c7Cl)c6)CC5(C)C)c4)CC3)cc21 (stereo partly shown)", "target": "PTPN2 (Homo sapiens, UniProt P17706, E41K/R35E/R43E)", "test": "degrader, bio-layer interferometry", "conditions": "125 nM", "scale": "higher = more binding", "endpoint": "BLI binding response", "value": "0.571 a.u."}
{"Structure (SMILES)": "Cc1cc(NC(=O)[C@H](O)c2cc(F)cc(F)c2)ccc1-c1cnc(N)c(C(=O)NC(C)C)c1", "target": "eIF-2-alpha kinase GCN2, C-terminal kinase domain (EIF2AK4, Homo sapiens, UniProt Q9P2K8, S808G)", "test": "binding, competition with immobilised ligand", "conditions": "10 µM", "endpoint": "remaining binding", "value": "64%"}
{"Structure (SMILES)": "C[Si](C)(C)C[C@@H](CN)CC(=O)O", "target": "DRD2 (Homo sapiens, UniProt P14416)", "test": "binding, radioligand binding", "conditions": "75 µM, together with: [3H]spiperone", "endpoint": "inhibition", "value": "-6%"}
{"Structure (SMILES)": "Cc1c(C)c2ccc(O[C@@H]3O[C@H](CO)[C@H](O)[C@H](O)[C@H]3O)cc2oc1=O", "target": "Adhesin FmlH, lectin domain (Escherichia coli, UniProt Q1RBS0)", "test": "binding to desialylated bovine submaxillary mucin, inhibitor, ELISA competition", "system": "UPEC UTI89", "conditions": "1 µM", "endpoint": "inhibition", "value": "10.2 ± 4.3%"}
{"note": "For quick reference, copied from above:"}
{"Structure (SMILES)": "CCCCCCCC/C=C\\CCCCCCCC(=O)OCC(O)COP(=O)(O)O (stereo not shown)", "target": "LPAR1 (Homo sapiens, UniProt Q92633)", "test": "G-protein dissociation, agonist, NanoBiT", "system": "HEK-293T", "conditions": "10 nM, wild-type receptor", "scale": "reference: baseline luminescence", "endpoint": "fold change", "value": "0.836 and 0.839 and 0.845 and 0.874 and 0.86 and 0.838"}
